Assay results from different studies.
± gives the spread as reported.
Action: agonist
CNR1: Cannabinoid receptor 1 (CNR1, Homo sapiens, UniProt P21554)
Sequence of UniProt P21554 (whole entry, unmodified, looked up): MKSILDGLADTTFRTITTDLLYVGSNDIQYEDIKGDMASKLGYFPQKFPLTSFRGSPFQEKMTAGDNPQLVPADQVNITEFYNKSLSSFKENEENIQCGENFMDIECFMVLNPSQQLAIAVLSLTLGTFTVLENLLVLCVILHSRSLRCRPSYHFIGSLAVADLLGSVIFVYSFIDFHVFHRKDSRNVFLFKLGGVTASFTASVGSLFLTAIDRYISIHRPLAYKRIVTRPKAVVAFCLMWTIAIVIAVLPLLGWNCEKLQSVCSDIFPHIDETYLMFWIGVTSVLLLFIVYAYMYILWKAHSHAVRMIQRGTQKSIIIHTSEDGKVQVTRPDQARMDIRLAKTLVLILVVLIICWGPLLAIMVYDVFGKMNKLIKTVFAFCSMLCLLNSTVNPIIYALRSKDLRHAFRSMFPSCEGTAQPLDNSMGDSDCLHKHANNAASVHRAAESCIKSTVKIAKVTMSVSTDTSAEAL

CCCCCn1cc(C(=O)c2cccc3ccccc23)c2ccccc21 — EC50 (Cannabinoid receptor 1 (CNR1, Homo sapiens, UniProt P21554, F170A); G protein activation, BRET): 1550 nM
Cc1ccc2c(C(C[N+](=O)[O-])c3cccs3)c(-c3ccccc3)[nH]c2c1 (stereo not shown) — EC50 (Cannabinoid receptor 1 (CNR1, Homo sapiens, UniProt P21554, V249A); G protein activation, BRET): 140 nM
Cn1c(C(C)(C)C)c/c(=N\C(=O)c2cc(C(F)(F)F)ccc2OCC(C)(C)O)n1CC1CCC1 — EC50 (CNR1; cAMP): > 10000 nM
CCCCCn1ccc(C(=O)N[C@H](C(N)=O)C(C)C)n1 — EC50 (CNR1; calcium signal): 4200 nM
CCCCCn1cc(C(=O)c2ccc3ccccc3c2)c2ccccc21 — EC50 (CNR1; GαoA activation, BRET): 166 nM
O=[N+]([O-])CC(c1ccco1)c1c(-c2ccccc2)[nH]c2ccccc12 (stereo not shown) — EC50 (Cannabinoid receptor 1, with Gz (CNR1, Homo sapiens, UniProt P21554); Gz dissociation, BRET; HEK293): 370 ± 40 nM
CCCCCn1ccc(C(=O)NC(C)(C)c2ccc(C#N)cc2)n1 — EC50 (CNR1; calcium signal): 216 nM
CCCCCn1cc(C(=O)c2cccc3c2CC(C)(C)C3)c2ccccc21 — EC50 (Cannabinoid receptor 1 (CNR1, Homo sapiens, UniProt P21554, H178A); G protein activation, BRET): 1380 nM
Cn1cc(C(C[N+](=O)[O-])c2c(-c3ccccc3)[nH]c3ccccc23)cn1 (stereo not shown) — EC50 (CNR1; β-arrestin recruitment, luciferase): 2830 nM
CCCCCn1ccc(C(=O)NC(C)(C)c2ccc(NC(C)=O)cc2)n1 — EC50 (CNR1; calcium signal): 112 nM

A few entries again:
Cc1ccc2c(C(C[N+](=O)[O-])c3cccs3)c(-c3ccccc3)[nH]c2c1 (stereo not shown) — EC50 (Cannabinoid receptor 1 (CNR1, Homo sapiens, UniProt P21554, V249A); G protein activation, BRET): 140 nM
